Measurements gathered from unrelated publications.
Compare with care: the assays were run in different laboratories. Several values in a cell are separate wells, animals, samples, runs or records.
Target: Sodium-dependent noradrenaline transporter (SLC6A2, Homo sapiens, UniProt P23975)

The inhibition of `COc1ccc(F)cc1S(=O)(=O)Nc1cnc2c(c1)C(=O)NCCO2` is reported as 4% (ligand displacement, radioligand; 10 µM).
`CCOC(=O)[C@](CC)(CCCSCCOCCOCCNC(=O)c1ccc(-c2c3ccc(=N)c(S(=O)(=O)O)c-3oc3c(S(=O)(=O)O)c(N)ccc23)c(C(=O)O)c1)NC(=O)c1ccc(C2CC2)c(Cc2ccc(F)cc2)n1` has an inhibition of 9% (ligand displacement, radioligand; 10 µM).
`C[C@@H]1COCCN1c1nc(NCc2cccnc2C(F)(F)F)c2cccnc2n1` has an IC50 of 40.1 µM (binding; CEREP panel).
For `Cc1cc(Nc2nc(C[C@@]3(C(=O)O)CCN(Cc4cccc(Cl)c4F)[C@H](C)C3)cc(C)c2F)[nH]n1`, the inhibition was 5.33% (inhibitor; 10 µM).
`O=C(O)c1ccc(-c2nc(-c3ccccc3Cl)c3sccn23)cc1` has a specific binding of 112% and 114% (radioligand binding, safety screen panel; 10 µM; reference: control).
`CS(C)(=O)=Nc1ccc(-c2ccc(-c3nc4cc(O[C@@H]5CO[C@H]6[C@@H]5OC[C@H]6O)[nH]c4cc3F)cc2)cc1` gave an inhibition of 43% (ligand displacement, radioligand; 10 µM).
With `C/C(=N\OCCCN1CCCCC1)c1ccc(C(F)(F)F)cc1` the inhibition was -11.9% (uptake, inhibitor; 10 µM).
For `CN[C@@H]1[C@H](O)[C@H](NC)[C@H]2O[C@]3(O)[C@H](O[C@@H]2[C@H]1O)O[C@H](C)C[C@H]3NC(=O)Cc1ccc(Cl)cn1`, the inhibition was 3% (ligand displacement, radioligand; 10 µM).
`CCN(CC)CCOc1ccc(-c2nnn(Cc3ccc(OC)cc3)c2N)cc1` has an inhibition of 4.46% (radioligand binding; HEK293; 10 µM, safety profiling).
For `Cc1sc2c(c1C)C(c1ccc(Cl)cc1)=NC(CC(=O)OC(C)(C)C)c1nnc(C)n1-2` (stereo not shown), the remaining binding was 110% (ligand displacement, radioligand; 1 µM).
`CCO[C@H]1[C@H](O)[C@@H](N)[C@@H](O[C@H]2[C@H](O[C@@H]3O[C@H](CO)[C@@H](O[C@H]4O[C@@H](CN)[C@@H](O)[C@H](O)[C@H]4N)[C@H]3O)[C@@H](O)[C@H](N)C[C@@H]2N)O[C@@H]1CO` gave a specific binding of 6% (radioligand binding; 10 µM, 1% DMSO).
`N[C@H](C(=O)N1CCCC1)C1CCN(c2nccc3c(-c4ncc(Cl)cc4Cl)cccc23)CC1` has an inhibition of 22% (ligand displacement; 10 µM).
`CCc1nnc(-c2c(OC)cc(-c3cnc4cc(-c5cnn(C)c5)ccn34)cc2OC)o1` has a remaining binding of 107% (antagonist radioligand, radioligand binding; 10 µM, SafetyScreen44 norepinephrine transporter mean; lower = stronger displacement).

Some of these lines once more:
For `Cc1cc(Nc2nc(C[C@@]3(C(=O)O)CCN(Cc4cccc(Cl)c4F)[C@H](C)C3)cc(C)c2F)[nH]n1`, the inhibition was 5.33% (inhibitor; 10 µM).
